Measurements gathered from unrelated publications.
Numbered parts are unrelated; each lists some results of a single study. Changes are numbered by the printed parent chain.

Sample 1 — method: protein-binding microarray; molecule type: double-stranded DNA, one strand shown; matrix: in vitro; tested at: not given; direction: higher = stronger binding
Target: Protein C-ets-1 (ETS1, Homo sapiens, UniProt P14921, residues 1-441, K379A, full length assumed)
UniProt P14921, sequence (whole entry, unmodified, looked up): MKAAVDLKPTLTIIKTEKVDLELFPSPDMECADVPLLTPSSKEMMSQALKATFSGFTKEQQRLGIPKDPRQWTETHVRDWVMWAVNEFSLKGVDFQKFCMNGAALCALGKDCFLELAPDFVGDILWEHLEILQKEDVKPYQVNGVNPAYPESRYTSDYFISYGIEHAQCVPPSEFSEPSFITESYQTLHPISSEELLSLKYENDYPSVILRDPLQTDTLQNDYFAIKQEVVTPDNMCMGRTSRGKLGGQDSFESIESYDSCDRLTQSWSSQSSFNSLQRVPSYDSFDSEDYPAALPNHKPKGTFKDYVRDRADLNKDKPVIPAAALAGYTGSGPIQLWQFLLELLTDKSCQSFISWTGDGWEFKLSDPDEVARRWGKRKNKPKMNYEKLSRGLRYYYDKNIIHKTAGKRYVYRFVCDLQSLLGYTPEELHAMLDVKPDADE
Setting: k-mer, scored over probes, only values ≥0.25
The E-score of `GGTCGACC` is reported as 0.257.
For `CACCCCCG`, the E-score was 0.279.
With `CGGTAATA` the E-score was 0.28.
The E-score of `CGACAAAA` is reported as 0.26.
`ACCGGGCG` gave an E-score of 0.263.
The E-score of `ACTTTCCG` is reported as 0.273.
With `CACCGTCG` the E-score was 0.331.
The E-score of `ATCGTGTC` is reported as 0.285.
`GGCGGTAA` has an E-score of 0.3.
For `ACACCGAC`, the E-score was 0.376.
With `GTCCGGTA` the E-score was 0.368.
`CCATCCGG` has an E-score of 0.291.
`CCGGTCGC` gave an E-score of 0.311.
With `TATATACA` the E-score was 0.29.

Sample 2 — method: aptamer microarray, sandwich; molecule type: DNA with 2'F-ANA; matrix: in vitro; tested at: 200 nM; together with: Cy3 exosite-II aptamer, 400 nM; direction: higher = stronger binding; oligonucleotide: GGTTGGTGTGGTTGG
Target: Prothrombin, mature alpha-thrombin (F2, Homo sapiens, UniProt P00734)
Setting: whole 15-mer aptamer, many near background
For `2'F-ANA at 2 3 4 5 6 7 8 10 12 13`, “mean fluorescence intensity” read 52 a.u.
`2'F-ANA at 1 3 4 7 13` — result for “mean fluorescence intensity”: 141 a.u.
`2'F-ANA at 2 3 5 8 11 14` — result for “mean fluorescence intensity”: 53.7 a.u.
`2'F-ANA at 1 4 5 7 9 10`: “mean fluorescence intensity” 45.9 a.u.
`2'F-ANA at 1 2 3 6 7 8 10 11 13 14 15` — result for “mean fluorescence intensity”: 77.5 a.u.
`2'F-ANA at 3 4 6 7 8 9 10 11 13 14 15` — result for “mean fluorescence intensity”: 150 a.u.
`2'F-ANA at 1 2 4 5 6 7 12 13 15` — result for “mean fluorescence intensity”: 90.1 a.u.
Under “mean fluorescence intensity”, `2'F-ANA at 1 3 5 8 10 11 12 15` is recorded as 50.9 a.u.
`2'F-ANA at 1 5 6 8 10 13 15`: “mean fluorescence intensity” 45.7 a.u.
`2'F-ANA at 2 4 8 9 10 11 12 15` — result for “mean fluorescence intensity”: 103 a.u.
Under “mean fluorescence intensity”, `2'F-ANA at 1 7 8 10 13 14` is recorded as 58.8 a.u.
For `2'F-ANA at 1 2 4 6 8 10 11 12`, “mean fluorescence intensity” read 55.3 a.u.
`2'F-ANA at 1 3 4 5 6 8 14` — result for “mean fluorescence intensity”: 45 a.u.
Under “mean fluorescence intensity”, `2'F-ANA at 1 2 7 10 15` is recorded as 52.8 a.u.
For `2'F-ANA at 2 5 6 7 8 9 10 12 13`, “mean fluorescence intensity” read 51.3 a.u.
Under “mean fluorescence intensity”, `2'F-ANA at 1 4 5 7 8 11 13 15` is recorded as 50.1 a.u.
`2'F-ANA at 1 3 4 5 8 11 13`: “mean fluorescence intensity” 60.7 a.u.
`2'F-ANA at 2 3 5 7 10 12 13 14` — result for “mean fluorescence intensity”: 52.6 a.u.
`2'F-ANA at 4 6 7 9 11 13 15` — result for “mean fluorescence intensity”: 132 a.u.

Sample 3 — method: RNA Bind-n-Seq; molecule type: RNA; matrix: in vitro; tested at: 365 nM; reference: no-protein control; direction: higher = stronger binding
Target: RNA binding protein fox-1 homolog 2, RRM domain, GST-SBP tag (RBFOX2, Homo sapiens, UniProt O43251-10, residues 100-194)
Setting: natural RNA segment, single round, ends assumed
Shared flanks, not repeated: GGGAGUUCUACAGUCCGACGAUC … UGGAAUUCUCGGGUGCCAA
Target sequence (chain): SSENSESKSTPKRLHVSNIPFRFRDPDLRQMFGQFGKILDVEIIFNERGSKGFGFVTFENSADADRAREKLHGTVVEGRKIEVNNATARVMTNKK
`GAGAUUUGAAAUCCCUUACCUCCAAUAAUAAGCCAUUCAGCCUAAAUUCAUUUUUAUGAAUAAAUCUCUUCUUUCUCAUGGUAAAUGUGGCUUGUGCCACUCAAACACUA` — result for “RBNS enrichment (R)”: 0.749.
Under “RBNS enrichment (R)”, `AAAAAGCAUGUAUGUUUUUUACUGUUUGUAAUAAGUACUUUCGUUAAUCUUGCUGCUUAUGUGCCAAUUUAGUGGAAAAAAACAACCCUUGCUGAAAAAUUCCCUCUUUC` is recorded as 1.19.
`CAAGUGCCCUUAGGAAGCCACACGGAGGGGAUGCUGGGAGUCCUGACAUAUGAAUCUAUUUAUUAUGUAGUACUGUGGCAGAGAAGGAAUCCAGGGGCCUGCACUGAUCG`: “RBNS enrichment (R)” 1.5.
`ACUUUUGCUGAUGCUUUUGAAAAUGUUUAUGCCACAGAAUUUGCUAAUAUAUUGUAAUCACAUUCCUUAGGAGGACUUUGGUAAUUGGUUUUAUGCAUUGAUGGUUUUUU`: “RBNS enrichment (R)” 0.563.
`CUCCGUGCUGUCCAGGAAUUGUUUUAUGUAUUAUUGUCAUUGCAGAAAAGGUAGUGGCCGAGCUGGUAUGGGCACAGACAGAUUGCUUUGUUCUUUCAUUUCUCCCAGCA` — result for “RBNS enrichment (R)”: 6.8.
`GGUCCUUGCUGUGACCUGUGCCCAGGAGGGUGUGAUCCGAUUGAAGCCUCAGGUGUCAGAGAGUAAGCUAUAGUGAAAGAUGCCUGGCUCGGCCUGGGGCUAAAAGGACU` — result for “RBNS enrichment (R)”: 0.439.
Under “RBNS enrichment (R)”, `UUGGUGUCAUUUUCAGGCGGGCCCCUCUCUGAUUCCUCGGUCUGGAAAUAAACGCCAGGAAACAGCCUGUGUUGUGGUUUCAUUACAUGUGUACCGCAGGACAAGGGAGG` is recorded as 0.265.
`GGCCUCCCAAAGUGCUGGGAUUACAGGUGUGAGCCACUGUGCCCAGCCCAAACUUUUAAGAUGACCCAAAGUCGUGAGAAUAGGAAAAAGGAAUCUGAUUAACAUUUAUG` — result for “RBNS enrichment (R)”: 0.414.
Under “RBNS enrichment (R)”, `CUGCGGUGGGCGGGGUCUUCGACGUCUCCAACGCUGACCGCCUGGGCUUCUCAGAGGUGGAGCUGGUGCAGAUGGUGGUGGACGGAGUGAAGCUGCUCAUCGAGAUGGAG` is recorded as 0.793.
`UGUUUCAGAAUUUUGUAUAUUGUAGGAAUCCUUUGAGAAUGUGAUUCCUUUUGAUGGGGAGAAAGGGCAAAUUAUUUUAAUAUUUUGUAUUUUCAACUUUAUAAAGAUAA` — result for “RBNS enrichment (R)”: 0.724.
`AUGUAUAAAGAAAUUAUUCUUCAUUCCAAUAUAUGAAGAUACUUGCCUUUUCAGCAGCGAUGGUCUCAGUGUGCUUGGGGCAGGAGUACAUAGUUUCUAUGAGCGAUAUA` — result for “RBNS enrichment (R)”: 0.346.
`UUUGUGUUGGAUUUGUUUUCCAAAUAUGUGUGUAUGUAGACUUCAUGGUAGUGUUUCUUAUUUAUUUGGUUGCUGCUAAGCCUUGACAGUGGUUCACCUUCCUGGGCUGU` — result for “RBNS enrichment (R)”: 1.4.

Sample 4 — method: RNAcompete; molecule type: RNA; matrix: in vitro; tested at: 20 nM; setting: 7-mer, probes averaged, single round; reference: mean of 7-mers; direction: higher = stronger binding
Target: PABPC1L2, full length, GST fusion (mouse, UniProt A0ABA7IW68)
Construct (chain): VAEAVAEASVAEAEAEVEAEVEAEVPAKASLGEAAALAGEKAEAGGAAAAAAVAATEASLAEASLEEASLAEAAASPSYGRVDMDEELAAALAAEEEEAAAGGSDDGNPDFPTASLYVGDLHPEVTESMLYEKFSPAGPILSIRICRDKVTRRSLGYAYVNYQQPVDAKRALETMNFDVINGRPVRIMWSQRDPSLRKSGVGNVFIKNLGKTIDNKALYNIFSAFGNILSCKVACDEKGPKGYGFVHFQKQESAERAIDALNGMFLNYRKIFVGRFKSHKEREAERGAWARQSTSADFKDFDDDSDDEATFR
`GCAGUUA` has a 7-mer Z-score of -0.0138.
The 7-mer Z-score of `CGGGUUG` is reported as -0.0971.
`UUCCUAU` has a 7-mer Z-score of -0.273.
`UGUUCGU` has a 7-mer Z-score of -0.541.
For `CGUUUGG`, the 7-mer Z-score was -0.523.
With `CAACCAC` the 7-mer Z-score was -0.184.
`CCCGGCU` has a 7-mer Z-score of -0.389.
With `UUUUAAG` the 7-mer Z-score was 0.126.
`CAGGGGA` gave a 7-mer Z-score of 0.251.
With `AGUCCGG` the 7-mer Z-score was -0.18.
For `CUGCAUC`, the 7-mer Z-score was -0.222.
`AUCAGCU` has a 7-mer Z-score of -0.171.
`UAGACUG` has a 7-mer Z-score of -0.115.
For `UCUGACA`, the 7-mer Z-score was -0.0899.
The 7-mer Z-score of `CCCUAGA` is reported as -0.0446.
`UGGUAUA` gave a 7-mer Z-score of -0.0989.
`GAUUAUC` has a 7-mer Z-score of -0.2.
`CAUAAUA` gave a 7-mer Z-score of -0.106.
`ACAAUGU` has a 7-mer Z-score of -0.0881.
`UAGAAUG` gave a 7-mer Z-score of -0.11.
For `GCGCCGG`, the 7-mer Z-score was -0.269.
`CGUCGUG` gave a 7-mer Z-score of -0.367.
With `UCAUACC` the 7-mer Z-score was -0.32.
For `UUCAGGU`, the 7-mer Z-score was -0.304.

Sample 5 — target: CCNE1, cyclin fold, Cln2 fusion (human); method: yeast growth competition, sequencing; matrix: yeast; setting: strong parent motif; reference: not given; direction: higher = stronger binding
Starting sequence: SCAPER docking peptide (human); SNARRSLNFGGST
For `ENARRSLNFGGST [S1E]`, “normalised enrichment score” read -0.029.
Under “normalised enrichment score”, `SIARRSLNFGGST [N2I]` is recorded as 0.805.
`SAARRSLNFGGST [N2A]` — result for “normalised enrichment score”: 0.984.
For `SNARRSLNFPGST [G10P]`, “normalised enrichment score” read 0.826.
For `SWARRSLNFGGST [N2W]`, “normalised enrichment score” read 0.67.
Under “normalised enrichment score”, `SNARRSLDFGGST [N8D]` is recorded as 1.23.
`SGARRSLNFGGST [N2G]`: “normalised enrichment score” 1.73.
For `SNAYRSLNFGGST [R4Y]`, “normalised enrichment score” read 0.181.
Under “normalised enrichment score”, `SNARKSLNLGGST [R5K F9L]` is recorded as -0.112.
`SNAWRSLNFGGST [R4W]` — result for “normalised enrichment score”: 0.473.
`SNARRSLNWGGST [F9W]`: “normalised enrichment score” 1.19.
Under “normalised enrichment score”, `SNARRSENFGGST [L7E]` is recorded as -0.471.
`SNARRILNFGGST [S6I]` — result for “normalised enrichment score”: 3.48.
`SNARRSLNFGHST [G11H]`: “normalised enrichment score” 1.
`SNARRSLCFGGST [N8C]` — result for “normalised enrichment score”: 0.456.
`SNARRSLNRGGST [F9R]` — result for “normalised enrichment score”: 0.387.
`SNARRSLNFGGGT [S12G]`: “normalised enrichment score” 0.704.
For `SNRRRSLNFGGST [A3R]`, “normalised enrichment score” read -0.325.
`SNAPRSLNFGGST [R4P]` — result for “normalised enrichment score”: -0.387.
`DNARRSLNFGGST [S1D]` — result for “normalised enrichment score”: 1.02.
`SNADRSLNFGGST [R4D]`: “normalised enrichment score” 0.383.
`SQARRSLNFGGST [N2Q]` — result for “normalised enrichment score”: 0.642.
Under “normalised enrichment score”, `HNARRSLNFGGST [S1H]` is recorded as 0.625.

Sample 6 — method: RNA Bind-n-Seq; molecule type: RNA; matrix: in vitro; tested at: 200 nM; setting: whole 134-nt RNA, ends assumed; together with: 150 mM LiCl; reference: input library; direction: higher = stronger binding; library: 7-deaza-guanosine replaces G
Target: Ras GTPase-activating protein-binding protein 1, full length (G3BP1, Homo sapiens, UniProt Q13283)
UniProt Q13283, sequence (whole entry, looked up): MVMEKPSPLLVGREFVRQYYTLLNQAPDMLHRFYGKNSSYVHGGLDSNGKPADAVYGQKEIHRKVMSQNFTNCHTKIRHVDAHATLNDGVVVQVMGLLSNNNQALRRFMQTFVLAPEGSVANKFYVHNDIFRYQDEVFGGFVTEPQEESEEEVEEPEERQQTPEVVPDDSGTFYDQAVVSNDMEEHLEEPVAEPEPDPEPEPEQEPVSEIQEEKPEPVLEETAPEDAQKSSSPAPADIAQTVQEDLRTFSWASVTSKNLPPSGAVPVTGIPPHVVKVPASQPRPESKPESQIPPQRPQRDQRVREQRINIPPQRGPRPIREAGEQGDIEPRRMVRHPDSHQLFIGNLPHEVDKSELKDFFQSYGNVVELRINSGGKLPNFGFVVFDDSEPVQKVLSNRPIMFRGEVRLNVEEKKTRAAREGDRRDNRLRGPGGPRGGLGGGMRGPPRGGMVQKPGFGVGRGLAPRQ
Shared flanks, not repeated: GGGAGUUCUACAGUCCGACGAUC … UGGAAUUCUCGGGUGUCAAGG
The log2 enrichment of `AAGUCCUGUGCUACACAUCGUAUGUACCGAAUCGGGAAAAAGGGUGGGAAAAAGGGAAAGUAUUAUGUUACGCCGUUCGGAUCUGCACUU` is reported as -0.37.
`CCUCAAGUCCUGUGCUACACAUCGUAUGUACCGAAUCGGUUUUUGGUGGUGGAAAGUAUUAUGUUACGCCGUUCGGAUCUGCACUUCCAG` gave a log2 enrichment of 0.067.
`CCUGUGCUACACAUCGUAUGUACCGAAUCGGGGUUUUUUGGGUUUUUUGGGUUUUUUGGGGAAAGUAUUAUGUUACGCCGUUCGGAUCUG` gave a log2 enrichment of -0.301.
The log2 enrichment of `UCAAGUCCUGUGCUACACAUCGUAUGUACCGAAUCGGUUUGGAGGAAAAAAAGGAAAGUAUUAUGUUACGCCGUUCGGAUCUGCACUUCC` is reported as -0.249.
The log2 enrichment of `UGGGAGGUGGAUUUUGUCUAUUUUUUUAGCUCAUUUCCAGGGGUGGGAAUUUUUUUUUAAUAUGUGUCAUGAAUAAAGUUGUUUUUGAAA` is reported as -0.362.
The log2 enrichment of `AAGUCCUGUGCUACACAUCGUAUGUACCGAAUCAAAUUUAAAUUUUUAAACCCAAAAAAGUAUUAUGUUACGCCGUUCGGAUCUGCACUU` is reported as 0.0573.
For `CUCAAGUCCUGUGCUACACAUCGUAUGUACCGAAUCGGUUUUUGGUGGUUUGGAAAGUAUUAUGUUACGCCGUUCGGAUCUGCACUUCCA`, the log2 enrichment was -0.0898.
With `AAGUCCUGUGCUACACAUCGUAUGUACCGAAUCGGGUUUUUGGGUGGGUUUUUGGGAAAGUAUUAUGUUACGCCGUUCGGAUCUGCACUU` the log2 enrichment was -0.783.
